Measured values collected from several papers.
Numbered parts are unrelated; each lists some results of a single study. Values joined by “and” are separate records of one study, mostly repeats; a detail may differ. Positions count from the first letter of the parent shown.

Sample 1
Target: Interferon regulatory factor 7, full length, phosphomimetic (IRF7, Homo sapiens, UniProt Q92985, residues 1-503, S101K/S471D/S472D/S475D/S476D/S477D/S483D/S484D/S487D)
Chain of UniProt Q92985 (whole entry, unmodified, looked up): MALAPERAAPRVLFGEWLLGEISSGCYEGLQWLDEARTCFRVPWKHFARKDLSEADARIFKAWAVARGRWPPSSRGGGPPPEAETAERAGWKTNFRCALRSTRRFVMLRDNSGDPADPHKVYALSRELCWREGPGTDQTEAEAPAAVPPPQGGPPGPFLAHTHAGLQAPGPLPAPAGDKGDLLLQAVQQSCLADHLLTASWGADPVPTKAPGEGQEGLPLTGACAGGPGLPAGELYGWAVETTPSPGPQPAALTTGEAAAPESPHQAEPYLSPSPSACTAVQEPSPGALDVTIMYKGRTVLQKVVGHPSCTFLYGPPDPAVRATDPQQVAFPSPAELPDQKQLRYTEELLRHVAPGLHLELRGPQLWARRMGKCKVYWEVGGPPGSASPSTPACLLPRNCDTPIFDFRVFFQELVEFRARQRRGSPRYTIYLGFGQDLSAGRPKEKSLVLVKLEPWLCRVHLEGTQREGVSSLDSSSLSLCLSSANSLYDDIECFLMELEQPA
Method: protein-binding microarray
Form: double-stranded DNA, one strand shown
Medium: in vitro
Tested at: 250 nM
Setting: 60-bp whole probe
Together with: salmon DNA 0.4 mg/ml
Baseline: random background probes
Direction: higher = stronger binding
Shared flanks, not repeated: GCCTAGCAC … GTCTTGATTCGCTTGACGCTGCTG
For `TTAGGACAGGGACTGGGTTAGTGCTAG`, the log fluorescence was -0.0612 z-score.
For `TCAAGTTTGTATATATTACTGTGCTAG`, the log fluorescence was 0.0475 z-score.
`TTAGATATCGGGTTTCGAATAGTGCTA` gave a log fluorescence of 3.17 z-score.
`TTAGGTTTCGGGTATTGGTTAGTGCTA` gave a log fluorescence of 6.73 z-score.
For `TCAAGTTCAGTTCTCTAACTGTGCTAG`, the log fluorescence was 0.833 z-score.
`TCACTTTTATTTTCAGTACTGTGCTAG` has a log fluorescence of 1.3 z-score.
`TTAGGTATCCTCCTGCTTTAGTGCTAG` gave a log fluorescence of 0.00513 z-score.
`GACGGTATCCTTCTCCAGACGTGCTAG` gave a log fluorescence of 0.0296 z-score.

Sample 2
Target: CCNB1, cyclin fold, Cln2 fusion (human)
Method: yeast growth competition, sequencing
Medium: yeast
Setting: strong parent motif
Baseline: not given
Direction: higher = stronger binding
Starting sequence: PKMYT1 docking peptide (human); SFEPRNLLSLFED
For `E3H`, “normalised enrichment score” read 1.44.
For `L7W`, “normalised enrichment score” read 0.404.
Under “normalised enrichment score”, `S1I` is recorded as 1.77.
`L10I` — result for “normalised enrichment score”: 1.49.
`R5A L7A`: “normalised enrichment score” -0.523.
`P4Q`: “normalised enrichment score” 0.878.
`E3M` — result for “normalised enrichment score”: 2.05.
`F11Y`: “normalised enrichment score” 1.12.

Sample 3
Target: RING finger protein unkempt homolog, zinc fingers 1-6, SBP tag (UNK, Homo sapiens, UniProt Q9C0B0, residues 30-357)
Chain of UniProt Q9C0B0 (30-357, looked up): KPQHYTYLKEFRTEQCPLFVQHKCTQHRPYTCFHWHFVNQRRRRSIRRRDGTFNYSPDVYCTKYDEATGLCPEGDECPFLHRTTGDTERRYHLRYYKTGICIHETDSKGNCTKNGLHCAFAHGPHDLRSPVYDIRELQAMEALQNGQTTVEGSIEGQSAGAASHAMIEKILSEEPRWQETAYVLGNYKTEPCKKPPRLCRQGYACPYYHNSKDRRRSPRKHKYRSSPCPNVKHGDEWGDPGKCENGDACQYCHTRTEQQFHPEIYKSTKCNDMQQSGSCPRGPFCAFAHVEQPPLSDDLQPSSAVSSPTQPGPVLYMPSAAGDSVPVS
Method: RNA Bind-n-Seq
Form: RNA
Medium: in vitro
Tested at: 100 nM
Setting: RNA with constant flanks, vertebrate orthologous sites, ends assumed
Baseline: input RNA pool
Direction: higher = stronger binding
With `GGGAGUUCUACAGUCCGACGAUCCCAAAAUUUUAGCCAAGAAUCUGAAGGCAGAAAUACAGGACCAUGGUUAUCUUCCUCACUUAGAAAUAGAUGCACACCUUUGUUCUCUAGAAGGAGGCGAGAGGGACGAGAUGAAUCUUCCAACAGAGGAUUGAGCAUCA` the bound/input enrichment was 1.13 ratio.
With `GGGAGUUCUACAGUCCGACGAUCCUACAAUAAUGAAAACCUACCAGAAAUUUUUUUUAUUUUUCAUUUUCCUUUAGGCAUACUUAAGCCUUUUUCUCCCCAGGCAGAUGAUUCUGAGUGUGCGAGUGUGUGUGCACAUGUUACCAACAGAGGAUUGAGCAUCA` the bound/input enrichment was 0.493 ratio.
For `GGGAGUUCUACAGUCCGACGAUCAAGAUGGUGGUUGUACAUUAUUUCAUUUAGAAAAUAUAAAAAUUCAUUUUGUUUUGAAGCUAGGUGUUAAACUGGAGUAGCUACUAUACCCCCAGAGAAUGGGGCAGUUGUGCCCUUCCCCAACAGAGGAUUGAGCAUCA`, the bound/input enrichment was 1.22 ratio.
For `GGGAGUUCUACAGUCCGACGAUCGAGCUAAAGGAGUUAGCAUCUUUAUUUUUGUAUCAAAGAUAAAGGUUAUUUUGAAAUUAUUAGAAUUUUCACACAACUCUGAAAUCUGUUGCUUUUGUAAACAAAUUGUUUGAUCUAGGGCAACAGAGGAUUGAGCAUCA`, the bound/input enrichment was 0.381 ratio.
`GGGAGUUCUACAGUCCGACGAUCCUCCCUAGCACCACAAAAAUAGAACUUUUUAAAAUUGUGUCGCCACCACUUCUAAAAAUUUAGCAAUAUUCGAAUAAAACACUAAUGAAGUAAAUCUUGCUUAUGGUGUUGCAAACCAGACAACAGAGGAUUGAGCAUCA` gave a bound/input enrichment of 4.39 ratio.
For `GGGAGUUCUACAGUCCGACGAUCCCCCGUUUUUAAAUGCUCUUUUGAUGCUUCCGGCAGCACCAUUUGUACAGUUUUUCUCUAAAAACAAAAAUGUUGAUUCGAAUUUCUUGUAUUUAAGUUUAAAUUGUUACAACAUUUUAGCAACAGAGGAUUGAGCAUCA`, the bound/input enrichment was 0.236 ratio.
`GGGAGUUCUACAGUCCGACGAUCGGGCGGCCCGUGGGGGAAUUCCCUGCCUUGGCCUUACCUCCCCUUCCUGCCACUUGCCCCUAGUUAUUUUUUUUUUUUUACCACCAUGUGAUUAAGGUCGGCGCUGCCUCCCCCGACCCACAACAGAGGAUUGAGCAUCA` gave a bound/input enrichment of 9.88 ratio.
The bound/input enrichment of `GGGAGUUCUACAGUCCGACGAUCCCACUAUAAACAACUCAGGGCAGUACUCCCGCUAUCCUUACAGCAACCUAAAUCAGGGAUUAGUUAACAGUACAGGGAUGAACCAGAACCUAGGCCUUACCAAUAGCGCUCCCCUGAACCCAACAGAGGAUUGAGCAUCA` is reported as 0.976 ratio.

Other studies, line by line
For C[C@@H](c1cccc(C#N)c1)n1cc(Cl)cc(C(N)=O)c1=N, the viability was 110% and 104% (normal organoid sample H; CellTiter-Glo; human, normal-adjacent epithelium; 1 µM; baseline: DMSO).
